# Experimental data of several laboratories.
# Numbered parts are unrelated; each lists some results of a single study. Changes are numbered by the printed parent chain.

# Set 1 — target: CCNB1, cyclin fold, Cln2 fusion (human); method: yeast growth competition, sequencing; medium: yeast; notes: weak parent motif; baseline: not given; reading: higher = stronger binding
# Starting sequence: CDC25A docking peptide (human); PPHRRRLLFACSP
Substitution,normalised enrichment score
PPHRRRLLFACNP [S12N],0.965
PPHRRRHLFACSP [L7H],0.287
PPNRRRLLFACSP [H3N],0.624
PAHRRRLLFACSP [P2A],0.607
PPHRRRLLEACSP [F9E],1.07

# Set 2 — method: RNA Bind-n-Seq; molecule type: RNA; medium: in vitro; concentration: 365 nM; baseline: no-protein control; reading: higher = stronger binding
# Target: RNA binding protein fox-1 homolog 2, RRM domain, GST-SBP tag (RBFOX2, Homo sapiens, UniProt O43251-10, residues 100-194)
# Notes: natural RNA segment, single round, ends assumed
# Residues (chain): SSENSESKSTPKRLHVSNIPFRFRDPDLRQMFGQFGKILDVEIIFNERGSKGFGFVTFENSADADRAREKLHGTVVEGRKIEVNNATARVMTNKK
Oligonucleotide,RBNS enrichment (R)
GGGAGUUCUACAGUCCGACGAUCGCUUCUUUGUGUGUCACCUUGCUUCCACGUUUCAGUUCUUGUUUUGUUUCUACUGCUUUAGUUUUUUUUAAAGUUCUCCAGUGUCCCCAAGAGGUAUUAGAAUCUUGCUGUGGAAUUCUCGGGUGCCAA,1.72
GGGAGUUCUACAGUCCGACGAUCUAAUGCUUUUAGUAGAGUACUAGAUAGUAUCAGUUUUGGAUUCUUAUUGUUAUCACCUAUGUACAAUGGAAAGGGAUUUUAAGCACAAACCUGCUGCUCAUCUAACGUUGUGGAAUUCUCGGGUGCCAA,0.338
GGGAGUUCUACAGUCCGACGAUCUGAAAAAUCAUCGAAAUGUAUAAAAAUUGCAGUAUCUUUAAAAUCAGUAAAAUGGACUAGCAUAUUAUUUAUCUUGUUCUUCAGUUAACAACUUUGUGUUCUCUGUGGGAUGGAAUUCUCGGGUGCCAA,0.609
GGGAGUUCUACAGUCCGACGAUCACUUUUAAGAUGUUACAGAUACAAAGAAAUGAUGUGGGUGUCAGGAGACUAAAGGAUGUUGAAGGCUACACAUUCAACCUUUUGUUAGGUGUUUCCUUUAAGCUACUCAGUGGAAUUCUCGGGUGCCAA,0.402
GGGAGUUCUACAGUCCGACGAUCAAUAUUAGGAUUCUGUUUUCUACAUUGCAAGCACAGGCACCCAUAGUACACUUUUGUUGAAGUUACAAAACCAGAAUGAGUAUGGCAAGUUCCAAGGGUCCCCAGUGCUUUGGAAUUCUCGGGUGCCAA,1.2
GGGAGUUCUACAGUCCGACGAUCUUCAGAUCACAAAGCAAACAGUCACCAAGGAUCUGUCUUCCAACUCUUUUUUUUUUCUGCUGAAAUGAAGCUACAUGUCAUGUUUGUGUUCUUUCAUCUGUGGCUCAUCCUGGAAUUCUCGGGUGCCAA,0.802
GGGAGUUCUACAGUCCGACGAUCAGGUCACCAACUCCACAGAUGAAACAGUUCAAUAAUGAGGAAACAGGUGAGCCCUGAAAACACAAAAGGACAGUUCUGUGUUGAAACACCCCAUCCCCUCACGUUCUCACUGGAAUUCUCGGGUGCCAA,0.419

# Set 3 — method: protein-binding microarray; molecule type: double-stranded DNA, one strand shown; medium: in vitro; concentration: 940 nM top; notes: 60-bp whole probe; added: salmon DNA 0.4 mg/ml; baseline: random background probes; reading: higher = stronger binding; all sequences stand within: GCCTAGCAC … GTCTTGATTCGCTTGACGCTGCTG
# Target: Interferon regulatory factor 5, full length, phosphomimetic (IRF5, Homo sapiens, UniProt Q13568-2, residues 1-514, S451D/S453D/S456D/S462D)
Oligonucleotide,fitted relative affinity [z-score]
GACGATATCGGGTTTCGAGAGGTGCTA,2.02
GACGGAATGCTACTGCTGACGTGCTAG,-0.719
TTTTTTTTCTAACTAAAAATGTGCTAG,0.562
TTAGGTCTCGGACTAGGTTAGTGCTAG,1.05
GACGGACTGCTTTTCGTGACGTGCTAG,-0.461
GTGGCCTTTGTTTCCAGGCAGTGCTAG,0.283
TCAGATTACATATATGTTACTGTGCTA,-0.345

# Further values, each from its own experiment
Molecule,target,test,system,setting,how to read,endpoint,value
"PhoQ, residues 284 288 289 292 302 303 ASSHFY","PhoP, residues 12 14 15 18 19 AWHSL (Escherichia coli, UniProt P23836)","Sort-seq, refers to: YFP reporter",E. coli,"PhoQ-PhoP variant library, added: 10 µM Mg2+","baseline: high Mg2+ state, higher = stronger signaling",fold induction,2.13

# Excerpt of the above (set 2):
Oligonucleotide,RBNS enrichment (R)
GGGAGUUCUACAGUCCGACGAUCUAAUGCUUUUAGUAGAGUACUAGAUAGUAUCAGUUUUGGAUUCUUAUUGUUAUCACCUAUGUACAAUGGAAAGGGAUUUUAAGCACAAACCUGCUGCUCAUCUAACGUUGUGGAAUUCUCGGGUGCCAA,0.338
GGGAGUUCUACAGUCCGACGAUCAAUAUUAGGAUUCUGUUUUCUACAUUGCAAGCACAGGCACCCAUAGUACACUUUUGUUGAAGUUACAAAACCAGAAUGAGUAUGGCAAGUUCCAAGGGUCCCCAGUGCUUUGGAAUUCUCGGGUGCCAA,1.2
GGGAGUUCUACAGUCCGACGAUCAGGUCACCAACUCCACAGAUGAAACAGUUCAAUAAUGAGGAAACAGGUGAGCCCUGAAAACACAAAAGGACAGUUCUGUGUUGAAACACCCCAUCCCCUCACGUUCUCACUGGAAUUCUCGGGUGCCAA,0.419
